{"data": "Experimental data of several laboratories", "note": "Every numbered part comes from another study and shows a few of its results, in no order."}
{"data": "Series 1", "target": "Prothrombin, mature alpha-thrombin (F2, Homo sapiens, UniProt P00734)", "technique": "aptamer microarray, sandwich", "form": "DNA with 2'F-ANA", "sample": "in vitro", "concentration": "200 nM", "setting": "whole 15-mer aptamer, many near background", "together with": "Cy3 exosite-II aptamer, 400 nM", "direction": "higher = stronger binding", "oligonucleotide": "GGTTGGTGTGGTTGG"}
{"Modification": "2'F-ANA at 1 2 3 5 6 10", "mean fluorescence intensity [a.u.]": 65.9}
{"Modification": "2'F-ANA at 1 3 5 7 9 10 11 13 15", "mean fluorescence intensity [a.u.]": 47.3}
{"Modification": "2'F-ANA at 3 5 6 8 10 14 15", "mean fluorescence intensity [a.u.]": 53.5}
{"Modification": "2'F-ANA at 5 6 7 8 12 15", "mean fluorescence intensity [a.u.]": 191}
{"Modification": "2'F-ANA at 1 3 6 8 9 10 12 13", "mean fluorescence intensity [a.u.]": 105}
{"Modification": "2'F-ANA at 1 2 4 5 6 8 9 12", "mean fluorescence intensity [a.u.]": 119}
{"Modification": "2'F-ANA at 4 13 15", "mean fluorescence intensity [a.u.]": 215}
{"Modification": "2'F-ANA at 1 9 12 13 14", "mean fluorescence intensity [a.u.]": 58.9}
{"data": "Series 2", "target": "Histone acetyltransferase KAT6A, winged helix 1, GST fusion (KAT6A, Homo sapiens, UniProt Q92794, residues 1-85)", "technique": "protein binding microarray", "form": "double-stranded DNA, one strand shown", "sample": "in vitro", "concentration": "not given", "setting": "8-mer, flanks averaged, mean of 2 arrays, mostly near background", "baseline": "not given", "direction": "higher = stronger binding", "Construct (chain)": "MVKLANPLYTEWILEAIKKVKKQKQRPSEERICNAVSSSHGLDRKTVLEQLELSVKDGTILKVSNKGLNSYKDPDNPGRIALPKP"}
{"Oligonucleotide": "ACAAAACC", "E-score": 0.00424}
{"Oligonucleotide": "CGAGCGAA", "E-score": -0.00907}
{"Oligonucleotide": "CGTACTAG", "E-score": 0.0535}
{"Oligonucleotide": "CCGGAAGC", "E-score": 0.166}
{"Oligonucleotide": "ACAACGAA", "E-score": -0.186}
{"Oligonucleotide": "ATACCCGC", "E-score": 0.335}
{"Oligonucleotide": "CGCTCCCG", "E-score": 0.346}
{"data": "Series 3", "target": "RNA binding protein fox-1 homolog 2, RRM domain, GST-SBP tag (RBFOX2, Homo sapiens, UniProt O43251-10, residues 100-194)", "technique": "RNA Bind-n-Seq", "form": "RNA", "sample": "in vitro", "concentration": "365 nM", "setting": "natural RNA segment, single round, ends assumed", "baseline": "no-protein control", "direction": "higher = stronger binding"}
{"Oligonucleotide": "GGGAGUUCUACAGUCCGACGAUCUGAGAGGCCGGGCAAGCCAGAUUAGGACUUUGUCCUCAUACUCUUACAGUGCUGCAAAGUUGUGUGCAUCGCUAAAGAGAGCCCCAACCUAUACAGAGAGCAAACAAUGAUGGAAUUCUCGGGUGCCAA", "RBNS enrichment (R)": 0.472}
{"Oligonucleotide": "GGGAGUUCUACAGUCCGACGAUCGCCUGAGUUGUAAAUCCAAAACAUAUUUUUGUUGGCUUGGGACGUUAGGGGCUUGGGGUUUUCCUGAGGCAAGAGGUCAUGGCUGAAUGGGCCUGUGCCGUGAAUUGAAUUGGAAUUCUCGGGUGCCAA", "RBNS enrichment (R)": 1.84}
{"Oligonucleotide": "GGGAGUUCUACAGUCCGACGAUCGGAAAACAAUUUUUUCAGAGAAUGUAUUUUUGUGCAGAAUUGCACAGAAUUCUAGAGACAGCGUUGUUCGGCAUCAAGGCAAAAGCCCACCUUUGCUUUUUAUGGAAAGCUGGAAUUCUCGGGUGCCAA", "RBNS enrichment (R)": 1.66}
{"Oligonucleotide": "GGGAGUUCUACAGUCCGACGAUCAUUAAUCCUACUCCUUAAAGUGAUUUUUUUGGGAUUAUACAAAUUCCUUUUUAUAUAAAAGUAUAUUGUUUAAAACAGUAGCUAUAGCCAUUAACCAAAGGACAGAUGUGUGGAAUUCUCGGGUGCCAA", "RBNS enrichment (R)": 0.595}
{"Oligonucleotide": "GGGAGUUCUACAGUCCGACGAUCGCAGCUCCGUGGGGCCCUCCGCCCCAGCCCCAGCCAGCCAGGCCCUGGUGGAAAGGCUGGGAGCCGCACAGCCCUCCCCUCCUGCGCUGGAAACCCUCCCUGACCCCCACUGGAAUUCUCGGGUGCCAA", "RBNS enrichment (R)": 0.378}
{"Oligonucleotide": "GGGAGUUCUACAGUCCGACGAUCUAAGCUAUGAGUUGAACUGUUUCUGUCAAGUAUGUCUUGUGUCCACACAUGGUUUGGAUGCUUCUAUAUUGGCCCUGCCCAGGUAGAAAGGGUAAGAAGAACAUGUAGAAUGGAAUUCUCGGGUGCCAA", "RBNS enrichment (R)": 0.994}
{"Oligonucleotide": "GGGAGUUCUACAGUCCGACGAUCCUUAACUUCAGCUGGUGCGAAACAUCUGACUGUUGUCAGACUCCAGCCAUCUGCUCCUGCAGCGUGCAGCUUUGGAUUGUUUGUGCAGAAAACAGCAAGCGAUGGCUGAUUGGAAUUCUCGGGUGCCAA", "RBNS enrichment (R)": 0.391}
{"Oligonucleotide": "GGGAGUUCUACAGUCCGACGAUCAUGGGUUUUGGAUUAGCAUCAGUCCUGUGUCACCAAGUGCCAAACAGCUGAGGGGUAGAAGUGGGACUCCUUUCCCGAGCCCCAGCAUGAGGCUGUGGUGUCAGGUUUAGUGGAAUUCUCGGGUGCCAA", "RBNS enrichment (R)": 5.69}
{"data": "Other studies, line by line"}
{"Molecule": "PhoQ, residues 284 288 289 292 302 303 GTAMQF", "target": "PhoP, residues 12 14 15 18 19 LHATL (Escherichia coli, UniProt P23836)", "test": "Sort-seq, item: YFP reporter", "system": "E. coli", "conditions": "PhoQ-PhoP variant library, together with: 10 µM Mg2+", "how to read": "baseline: high Mg2+ state, higher = stronger signaling", "measurement": "fold induction", "value": 15.4}
{"note": "Repeated from above (series 2):"}
{"Oligonucleotide": "ACAAAACC", "E-score": 0.00424}
{"Oligonucleotide": "CGCTCCCG", "E-score": 0.346}
{"Oligonucleotide": "CGAGCGAA", "E-score": -0.00907}
